Published values from different studies.
Parts stem from different laboratories: compare values within a part only.

Study 1
Target: Sal-like protein 4, full length isoform A (SALL4, Homo sapiens, UniProt Q9UJQ4, residues 1-1053)
UniProt Q9UJQ4, sequence (whole entry, looked up): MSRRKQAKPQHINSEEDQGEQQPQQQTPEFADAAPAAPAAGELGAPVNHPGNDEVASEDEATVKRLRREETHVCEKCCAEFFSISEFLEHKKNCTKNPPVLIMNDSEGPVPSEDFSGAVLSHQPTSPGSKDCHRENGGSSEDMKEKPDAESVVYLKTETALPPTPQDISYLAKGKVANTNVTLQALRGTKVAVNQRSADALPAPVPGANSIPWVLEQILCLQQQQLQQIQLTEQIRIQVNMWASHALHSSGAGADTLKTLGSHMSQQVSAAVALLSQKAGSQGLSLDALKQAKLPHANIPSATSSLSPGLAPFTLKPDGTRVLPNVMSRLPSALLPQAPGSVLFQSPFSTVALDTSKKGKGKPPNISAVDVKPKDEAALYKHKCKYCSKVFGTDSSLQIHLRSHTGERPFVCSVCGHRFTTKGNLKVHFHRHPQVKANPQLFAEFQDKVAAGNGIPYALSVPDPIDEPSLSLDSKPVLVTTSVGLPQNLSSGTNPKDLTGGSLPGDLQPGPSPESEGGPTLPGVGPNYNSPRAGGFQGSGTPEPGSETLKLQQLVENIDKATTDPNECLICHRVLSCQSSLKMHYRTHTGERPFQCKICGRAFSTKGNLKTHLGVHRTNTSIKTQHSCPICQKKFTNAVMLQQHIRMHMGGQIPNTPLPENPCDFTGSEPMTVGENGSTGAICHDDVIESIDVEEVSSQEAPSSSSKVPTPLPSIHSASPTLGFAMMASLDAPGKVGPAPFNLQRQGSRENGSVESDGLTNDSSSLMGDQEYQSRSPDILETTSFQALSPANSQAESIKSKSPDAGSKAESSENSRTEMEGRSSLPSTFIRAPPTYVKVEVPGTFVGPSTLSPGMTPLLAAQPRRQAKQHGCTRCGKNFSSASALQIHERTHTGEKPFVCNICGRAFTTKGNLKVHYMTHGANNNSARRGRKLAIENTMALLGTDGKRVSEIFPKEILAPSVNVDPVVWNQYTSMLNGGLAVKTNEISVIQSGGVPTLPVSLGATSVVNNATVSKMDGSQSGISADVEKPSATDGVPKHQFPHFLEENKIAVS
Method: universal PBM
Form: double-stranded DNA, one strand shown
Matrix: in vitro
Concentration: 600 nM
Notes: 8-mer, flanks averaged, mean of replicates
Direction: higher = stronger binding
Sequence	E-score
ACGTGGAG	-0.137
AAACTACA	0.125
GGAGGAAC	-0.125
CACTGAGA	-0.0121
GGAACATA	0.222
AGAAGCCA	-0.0459
GACTTCGA	0.0796

Study 2
Target: Histone acetyltransferase KAT6A, winged helix 2, GST fusion (KAT6A, Homo sapiens, UniProt Q92794, residues 85-181)
Method: protein binding microarray
Form: double-stranded DNA, one strand shown
Matrix: in vitro
Concentration: not given
Notes: 8-mer, flanks averaged, mean of 2 arrays, mostly near background
Relative to: not given
Direction: higher = stronger binding
Construct (chain): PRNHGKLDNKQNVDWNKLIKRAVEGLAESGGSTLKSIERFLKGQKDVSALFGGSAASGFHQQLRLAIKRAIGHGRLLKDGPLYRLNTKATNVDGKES
Sequence	E-score
GTCCCGAA	-0.147
CCACACTC	-0.0412
CGATATGC	-0.0198
ACGACCCT	0.0363
ACGGTAAC	-0.108
GAGTAACC	0.00966
AGGTTTAG	-0.0646

Study 3
Target: Fragile X messenger ribonucleoprotein 1, C-terminal low-complexity region (Fmr1, Mus musculus, UniProt P35922)
Method: RNA Bind-n-Seq
Form: RNA
Matrix: in vitro
Concentration: 200 nM
Notes: whole 134-nt RNA, ends assumed
With: 150 mM LiCl
Relative to: input library
Direction: higher = stronger binding
All molecules: 7-deaza-guanosine replaces G
All sequences stand within: GGGAGUUCUACAGUCCGACGAUC … UGGAAUUCUCGGGUGUCAAGG
Sequence	log2 enrichment
AAGUCCUGUGCUACACAUCGUAUGUACCGAAUCGGGGUUUGGGGAAAGGGGAGGGGAAAGUAUUAUGUUACGCCGUUCGGAUCUGCACUU	-0.0604
ACAAAGCAGGUGGGCAUCUUUGGGAAGUGGGGCAAGGGGGGGAUAGGGAGGGGGGUAACACUUUGGGAACAGGUGGUCCCAGGUCGUUUC	1.23
AGUCCUGUGCUACACAUCGUAUGUACCGAAUCAAAGUGUGUGUGUGUGUGUGUGUAAAAAAGUAUUAUGUUACGCCGUUCGGAUCUGCAC	-0.89
CUCAAGUCCUGUGCUACACAUCGUAUGUACCGAAUCGGGCCGGGGCCGGGCCGGAAAGUAUUAUGUUACGCCGUUCGGAUCUGCACUUCC	0.586
CAAGUCCUGUGCUACACAUCGUAUGUACCGAAUCGGGAAAGGGUUUUUGGGUGGGAAAGUAUUAUGUUACGCCGUUCGGAUCUGCACUUC	-0.921
UCAUCCUUUUUAAAUUUUUUUUUUUUUUUUGAGACGGUCUCACUCUCACCCAGGCUGGAUUGCAGUGGUGUGAUCUCGACCAACUGCAAC	0.56

Mixed results
Molecule	target	assay	test system	setting	scale	measurement	value
PhoQ, residues 284 288 289 292 302 303 NLGVHL	PhoP, residues 12 14 15 18 19 YHFSH (Escherichia coli, UniProt P23836)	Sort-seq, refers to: YFP reporter	E. coli	PhoQ-PhoP variant library, with: 10 µM Mg2+	relative to: high Mg2+ state, higher = stronger signaling	fold induction	5.68

Some of these lines once more (study 1):
Sequence	E-score
GGAGGAAC	-0.125
GACTTCGA	0.0796
